Results of several laboratories.
Compare with care: the assays were run in different laboratories. ± gives the spread as reported.
Cell line: MIA PaCa-2

`O=C(Nc1cccc2cccnc12)c1cnccn1` — result for “lowest effective concentration”: 0.25 µM (protein induction, Western blot, refers to: WIPI1; 72 h).
For `CNC(=O)c1ccccc1Nc1cc(Nc2ccc(N3CCOCC3)cc2OC)ncc1C(F)(F)F`, the intracellular concentration was roughly 0.45 pg/cell (cellular uptake; 20 µM, 2 h).
The GI50 of `[NH2][Pt]([NH2])([Cl])[Cl]` is reported as 1800 ± 500 nM (cell growth, sulforhodamine B).
Under “lowest effective concentration”, `COc1ccc(NC(=O)c2cccc(-c3nc(NC(P(=O)(O)O)P(=O)(O)O)c4ccsc4n3)c2)cc1F` is recorded as no more than 0.1 µM (Rap1A prenylation, inhibitor, Western blot).
`O=C(CN1CCC(CN2Cc3ccccc3C2=O)CC1)c1ccc(F)cc1`: protein level “increased” (western blot, refers to: GRP78; concentration not given, 24 h).
`O=C(/C=C/C=C/C=C/C1CCCCC1)NC1=C[C@@](O)(/C=C/C=C/C=C/C(=O)NC2=C(O)CCC2=O)[C@@H]2O[C@@H]2C1=O` gave a GI50 of 19300 nM (CellTiter-Glo; 78 h).
For `COc1cccc2c1C(=O)c1c(O)c3c(c(O)c1C2=O)C[C@@](O)(C(=O)CO)C[C@@H]3O[C@H]1C[C@H](N)[C@H](O)[C@H](C)O1`, the Emax was 99% (cytotoxicity, WST-1; 72 h, highest tested concentration).
The GI50 of `O=c1[nH]cc(F)c(=O)[nH]1` is reported as 16000 ± 5000 nM (cell growth, sulforhodamine B).
`CCn1cc(-c2cc(Cn3ccoc3=N)cc3c2CCN([C@@H](C)c2cc(OC)ccn2)C3=O)c(C(F)(F)F)n1` has an EC50 of 238 nM (cell growth; 120 h).
`Fc1ccc(-n2cc(CCCCN3CCC4(CC3)OCc3ccccc34)c3ccccc32)cc1`: protein level “increased” (western blot, refers to: GRP78; concentration not given, 24 h).
With `C=CC(=O)N1CCN(c2nc(=O)n(-c3c(C)ccnc3C3CC3)c3nc(-c4ccccc4F)c(Cl)cc23)[C@@H](C)C1` the IC50 was 38 nM (ERK1/2 phosphorylation, inhibitor, MSD immunoassay, refers to: p-ERK1/2; 2 h).
The IC50 of `CN(C)CCN1CCN(CCCN2c3ccccc3Sc3ccc(C(F)(F)F)cc32)CC1` is reported as 2300 nM (cell viability; 72 h).
`COc1cnc2cccc(N3CCc4c(cc(Cn5ccnc5C)cc4-c4cn(C)nc4C(F)(F)F)C3=O)c2c1` gave an EC50 of 1440 nM (cell growth; 120 h).
`Cc1nc(Nc2ncc(C(=O)Nc3c(C)cccc3Cl)s2)cc(N2CCN(CCO)CC2)n1` gave an IC50 of 4850 nM (cell viability, MTT; mutant KRAS primary).

Excerpt of the above:
For `COc1cccc2c1C(=O)c1c(O)c3c(c(O)c1C2=O)C[C@@](O)(C(=O)CO)C[C@@H]3O[C@H]1C[C@H](N)[C@H](O)[C@H](C)O1`, the Emax was 99% (cytotoxicity, WST-1; 72 h, highest tested concentration).
